Results pooled from the literature.
Compare with care: the assays were run in different laboratories. ± gives the spread as reported.
GBA2: Beta-glucosidase (GBA2, Homo sapiens, UniProt Q9HCG7)
MAPK8: Mitogen-activated protein kinase 8 (MAPK8, Homo sapiens, UniProt P45983)

Protein sequences, listed by entry. Tags and fused reporters are not part of them. Residues count along the entry.
UniProt Q9HCG7, whole entry: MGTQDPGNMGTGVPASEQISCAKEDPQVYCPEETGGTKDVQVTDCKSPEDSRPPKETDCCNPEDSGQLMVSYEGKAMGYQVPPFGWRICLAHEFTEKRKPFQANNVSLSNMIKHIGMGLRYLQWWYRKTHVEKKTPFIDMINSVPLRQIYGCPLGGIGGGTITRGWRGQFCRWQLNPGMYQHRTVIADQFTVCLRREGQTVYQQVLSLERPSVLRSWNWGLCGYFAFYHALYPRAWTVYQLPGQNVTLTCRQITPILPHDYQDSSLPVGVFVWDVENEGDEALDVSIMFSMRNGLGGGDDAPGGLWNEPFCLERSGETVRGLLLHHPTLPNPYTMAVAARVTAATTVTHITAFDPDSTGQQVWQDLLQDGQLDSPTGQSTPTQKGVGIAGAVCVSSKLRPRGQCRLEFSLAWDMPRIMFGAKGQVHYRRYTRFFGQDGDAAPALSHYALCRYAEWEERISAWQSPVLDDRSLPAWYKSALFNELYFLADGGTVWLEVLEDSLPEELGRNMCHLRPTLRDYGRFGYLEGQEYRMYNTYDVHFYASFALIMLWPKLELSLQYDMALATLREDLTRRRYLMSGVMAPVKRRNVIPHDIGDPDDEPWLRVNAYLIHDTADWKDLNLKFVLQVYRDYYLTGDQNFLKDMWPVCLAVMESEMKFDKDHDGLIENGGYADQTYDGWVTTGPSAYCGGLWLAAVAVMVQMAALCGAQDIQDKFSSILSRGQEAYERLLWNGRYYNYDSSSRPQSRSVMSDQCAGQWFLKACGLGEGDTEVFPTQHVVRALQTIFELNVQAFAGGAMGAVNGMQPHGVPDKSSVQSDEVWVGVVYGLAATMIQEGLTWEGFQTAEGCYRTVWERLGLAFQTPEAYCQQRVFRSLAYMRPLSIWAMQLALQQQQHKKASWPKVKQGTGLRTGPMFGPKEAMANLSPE
UniProt P45983, whole entry: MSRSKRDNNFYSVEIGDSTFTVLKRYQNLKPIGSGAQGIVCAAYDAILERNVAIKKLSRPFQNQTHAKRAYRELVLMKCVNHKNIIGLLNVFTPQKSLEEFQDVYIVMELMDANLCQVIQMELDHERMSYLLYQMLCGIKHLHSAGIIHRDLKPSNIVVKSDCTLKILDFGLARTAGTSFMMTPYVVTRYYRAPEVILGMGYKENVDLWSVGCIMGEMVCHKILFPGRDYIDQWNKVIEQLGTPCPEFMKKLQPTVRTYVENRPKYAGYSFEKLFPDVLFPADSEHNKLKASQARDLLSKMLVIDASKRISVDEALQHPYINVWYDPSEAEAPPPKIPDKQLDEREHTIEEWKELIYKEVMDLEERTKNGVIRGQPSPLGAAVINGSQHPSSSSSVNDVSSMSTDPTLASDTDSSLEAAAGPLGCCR
UniProt P45983, 1-384 isoform 3: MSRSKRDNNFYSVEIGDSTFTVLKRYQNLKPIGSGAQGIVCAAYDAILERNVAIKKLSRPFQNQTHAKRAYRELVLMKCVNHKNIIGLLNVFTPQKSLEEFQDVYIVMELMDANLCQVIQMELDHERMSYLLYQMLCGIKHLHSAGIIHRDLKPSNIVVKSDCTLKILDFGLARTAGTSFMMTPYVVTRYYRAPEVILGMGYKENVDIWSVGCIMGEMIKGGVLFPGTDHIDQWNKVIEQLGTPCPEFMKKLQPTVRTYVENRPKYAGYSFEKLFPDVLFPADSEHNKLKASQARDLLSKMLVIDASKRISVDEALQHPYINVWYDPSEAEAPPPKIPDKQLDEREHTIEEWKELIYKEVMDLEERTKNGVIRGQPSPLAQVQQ
UniProt P52895, whole entry: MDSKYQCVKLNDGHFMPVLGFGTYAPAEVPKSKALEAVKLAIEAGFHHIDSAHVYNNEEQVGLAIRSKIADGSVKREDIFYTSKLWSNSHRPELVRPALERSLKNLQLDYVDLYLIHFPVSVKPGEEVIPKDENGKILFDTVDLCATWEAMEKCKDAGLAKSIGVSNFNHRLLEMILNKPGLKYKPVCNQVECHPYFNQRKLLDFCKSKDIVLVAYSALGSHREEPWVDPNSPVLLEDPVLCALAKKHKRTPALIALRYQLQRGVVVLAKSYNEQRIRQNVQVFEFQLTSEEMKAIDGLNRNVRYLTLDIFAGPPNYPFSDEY
UniProt O08529, whole entry: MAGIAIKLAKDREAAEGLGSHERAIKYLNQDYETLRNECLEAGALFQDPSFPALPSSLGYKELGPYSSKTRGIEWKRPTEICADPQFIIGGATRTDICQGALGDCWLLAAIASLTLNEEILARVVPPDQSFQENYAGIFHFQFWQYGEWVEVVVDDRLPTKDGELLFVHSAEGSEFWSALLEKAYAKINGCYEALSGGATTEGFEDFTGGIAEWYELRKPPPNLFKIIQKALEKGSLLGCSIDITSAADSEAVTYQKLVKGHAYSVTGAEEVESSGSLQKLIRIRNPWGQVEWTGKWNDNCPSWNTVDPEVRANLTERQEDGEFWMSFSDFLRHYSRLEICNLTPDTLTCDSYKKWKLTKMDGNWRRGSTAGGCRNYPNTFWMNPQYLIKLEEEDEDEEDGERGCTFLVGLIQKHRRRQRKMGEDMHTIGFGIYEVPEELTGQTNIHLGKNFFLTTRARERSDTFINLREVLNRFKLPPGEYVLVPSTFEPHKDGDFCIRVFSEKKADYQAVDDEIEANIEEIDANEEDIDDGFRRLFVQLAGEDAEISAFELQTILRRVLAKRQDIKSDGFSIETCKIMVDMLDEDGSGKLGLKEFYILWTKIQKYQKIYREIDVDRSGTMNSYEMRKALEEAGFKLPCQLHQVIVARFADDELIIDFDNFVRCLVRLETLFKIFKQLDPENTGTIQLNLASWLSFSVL
UniProt P41148, 22-804 limits assumed: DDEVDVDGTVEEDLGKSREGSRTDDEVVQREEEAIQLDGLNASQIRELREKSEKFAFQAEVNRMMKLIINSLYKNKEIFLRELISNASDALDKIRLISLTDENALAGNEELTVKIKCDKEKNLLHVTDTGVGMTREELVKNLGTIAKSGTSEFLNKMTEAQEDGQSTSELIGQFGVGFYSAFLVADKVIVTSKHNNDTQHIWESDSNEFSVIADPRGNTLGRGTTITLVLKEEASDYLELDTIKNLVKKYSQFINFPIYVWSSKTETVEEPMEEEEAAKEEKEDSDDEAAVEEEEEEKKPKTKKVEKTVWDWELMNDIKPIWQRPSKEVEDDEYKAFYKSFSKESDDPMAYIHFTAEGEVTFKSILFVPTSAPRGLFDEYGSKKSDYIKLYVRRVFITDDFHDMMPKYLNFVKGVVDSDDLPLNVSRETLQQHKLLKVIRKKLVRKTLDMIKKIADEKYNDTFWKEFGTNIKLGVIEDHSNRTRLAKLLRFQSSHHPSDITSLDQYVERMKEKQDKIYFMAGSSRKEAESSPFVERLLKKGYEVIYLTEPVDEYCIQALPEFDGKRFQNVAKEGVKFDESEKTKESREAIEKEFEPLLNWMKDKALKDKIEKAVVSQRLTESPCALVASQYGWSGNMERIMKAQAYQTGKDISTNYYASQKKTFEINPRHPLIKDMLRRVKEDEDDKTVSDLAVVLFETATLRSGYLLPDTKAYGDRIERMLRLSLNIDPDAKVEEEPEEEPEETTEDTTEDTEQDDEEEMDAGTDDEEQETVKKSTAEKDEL
UniProt Q923Y9, whole entry: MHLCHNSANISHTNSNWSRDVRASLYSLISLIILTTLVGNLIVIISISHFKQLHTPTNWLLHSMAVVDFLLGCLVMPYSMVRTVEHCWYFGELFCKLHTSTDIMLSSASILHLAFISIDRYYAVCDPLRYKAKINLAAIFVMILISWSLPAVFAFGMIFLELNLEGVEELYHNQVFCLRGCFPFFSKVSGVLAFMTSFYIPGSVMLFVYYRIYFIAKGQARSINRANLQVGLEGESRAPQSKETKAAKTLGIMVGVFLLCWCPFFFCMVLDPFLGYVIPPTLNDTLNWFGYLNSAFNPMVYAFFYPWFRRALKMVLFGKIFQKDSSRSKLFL
UniProt O15379, whole entry: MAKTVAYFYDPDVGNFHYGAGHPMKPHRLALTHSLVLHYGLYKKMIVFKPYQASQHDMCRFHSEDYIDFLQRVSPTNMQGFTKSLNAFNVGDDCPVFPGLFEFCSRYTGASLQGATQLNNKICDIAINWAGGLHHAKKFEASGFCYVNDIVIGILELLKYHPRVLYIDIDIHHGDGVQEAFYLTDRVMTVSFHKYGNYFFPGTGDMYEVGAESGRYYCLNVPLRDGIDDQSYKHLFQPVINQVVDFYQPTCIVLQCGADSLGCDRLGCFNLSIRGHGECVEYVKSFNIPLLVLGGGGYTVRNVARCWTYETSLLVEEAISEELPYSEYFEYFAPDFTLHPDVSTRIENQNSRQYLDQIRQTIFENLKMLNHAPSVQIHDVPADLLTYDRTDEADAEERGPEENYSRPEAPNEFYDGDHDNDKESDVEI
UniProt P46116, whole entry: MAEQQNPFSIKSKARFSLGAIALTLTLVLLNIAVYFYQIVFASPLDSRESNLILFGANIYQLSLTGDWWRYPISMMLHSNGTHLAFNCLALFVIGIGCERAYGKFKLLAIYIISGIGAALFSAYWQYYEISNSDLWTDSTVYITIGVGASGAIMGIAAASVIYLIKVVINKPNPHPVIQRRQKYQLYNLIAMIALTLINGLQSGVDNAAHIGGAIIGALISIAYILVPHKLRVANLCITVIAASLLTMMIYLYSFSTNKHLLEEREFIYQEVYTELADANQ
UniProt O88456, whole entry partner: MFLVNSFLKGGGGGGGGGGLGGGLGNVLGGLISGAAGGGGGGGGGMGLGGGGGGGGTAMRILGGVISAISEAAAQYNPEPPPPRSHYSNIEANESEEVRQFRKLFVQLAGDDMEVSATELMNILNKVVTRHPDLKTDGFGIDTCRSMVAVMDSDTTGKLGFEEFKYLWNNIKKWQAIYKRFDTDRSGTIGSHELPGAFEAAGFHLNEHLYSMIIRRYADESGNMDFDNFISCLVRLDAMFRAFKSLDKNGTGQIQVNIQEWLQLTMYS
UniProt Q9Y618, 395-489 partner limits assumed: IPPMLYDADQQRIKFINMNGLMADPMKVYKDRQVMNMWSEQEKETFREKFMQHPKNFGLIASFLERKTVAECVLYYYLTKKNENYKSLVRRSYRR

| Compound | tested on | assay | test system | setting | how to read | measurement | result |
| --- | --- | --- | --- | --- | --- | --- | --- |
| OCC1C(O)C(O)C(O)CN1CC(F)(F)CCCOCc1ccc(-c2ccccc2)cc1 (centres unmarked) | GBA2 | – | – | – | baseline: GCS IC50 over GBA2 IC50 | selectivity ratio | 10 |
| O=C(O)c1ccc(Nc2cccc(C(=O)O)c2)cc1 | AKR1C2 (Homo sapiens, UniProt P52895) | enzyme activity, inhibitor | – | together with: S-tetralol, NADP+ | baseline: IC50 AKR1C2 over IC50 AKR1C3 | selectivity ratio | 12 |
| OCC1C(O)C(O)C(O)CN1CCCC(F)(F)COCc1ccc(-c2ccccc2)cc1 (centres unmarked) | GBA2 | – | – | – | baseline: GBA1 IC50 over GBA2 IC50 | selectivity ratio | 6250 |
| CN(C)C(=O)Cn1cc(-c2ccc(-c3cncc4ccncc34)cc2)cn1 | other kinases except CDK19 | enzyme activity, SelectScreen | – | – | baseline: other kinases over CDK8 | selectivity ratio | > 300 fold |
| C/C=C/Cn1c(Cc2cc(OC)c(OC)c(OC)c2)nc2c(N)ncnc21 | human Hsp90α and Hsp90β NTD | binding, isothermal titration calorimetry | – | Hsp90α residues 1-236 | baseline: Kd Hsp90β over Hsp90α | selectivity ratio | 2.1 ± 0.3 fold |
| COC(=O)[C@@]1(C)C=C(C(=O)Nc2cccc(C(=O)NC34CC(Nc5nccc(-c6cccnc6)n5)(C3)C4)c2)C(=O)CC1 | MAPK8 | kinase activity, inhibitor | – | 0.0007527 µM, together with: 10 mM GSH | – | remaining activity | 1.01 fraction of control |
| CCC(NC(=O)C(CC(C)C)NC(=O)Cc1ccncc1)C(=O)C(=O)NCc1cc(OC)cc(OC)c1 (centres unmarked) | Calpain-2 catalytic subunit (Capn2, Mus musculus, UniProt O08529) | enzyme activity, inhibitor | pons-cerebellum membrane fractions | together with: calcium 2 mM | baseline: IC50 calpain-1 over calpain-2 | selectivity ratio | 0.8 |
| C=C1C[C@]2(C(=O)OC)C=C(C(=O)OC(C)(C)C)C(=O)[C@H]1C2 (relative stereo) | MAPK8 | – | – | – | baseline: Ki ERK2 over Ki target | selectivity ratio | > 5 fold |
| COC(=O)c1c(O)cc(O)c(Cl)c1CCc1ccccc1Cc1ccccc1Cl | Endoplasmin (HSP90B1, Canis lupus familiaris, UniProt P41148) | fluorescence polarization | – | together with: FITC-geldanamycin tracer | baseline: Grp94 over Hsp90α | selectivity ratio | > 18 fold |
| COC(=O)[C@@H]1C(c2nc3cc(C(F)(F)F)ccc3s2)=Cc2cc3c(cc2[C@H]1c1cc(OC)c(OC)c(OC)c1)OCO3 | Leishmania infantum | iRFP fluorescence | mouse splenocytes infected, amastigote, iRFP, ex vivo splenic explant | 48 h | – | EC50 | 42.3 ± 3.1 µM |
| NCCc1ccc(Oc2ccccc2)cc1 | Trace amine-associated receptor 1 (Rattus norvegicus, UniProt Q923Y9) | cAMP production, agonist | – | – | baseline: rat over mouse potency | selectivity ratio | 7 to 10 fold |
| O=C(CCCCCCN(Cc1ccc2ccccc2c1)Cc1ccc2ccccc2c1)NO | HDAC3 (Homo sapiens, UniProt O15379) | – | – | – | baseline: IC50 HDAC3 over HDAC1 | selectivity ratio | 0.86 |
| COC(=O)[C@@H]1C(C=Nc2cc(C)ccc2O)=Cc2cc3c(cc2[C@H]1c1cc(OC)c(OC)c(OC)c1)OCO3 | Leishmania | – | mouse splenocytes | – | baseline: CC50 over amastigote EC50 | selectivity index | 0.5 |
| OC[C@H]1[C@@H](O)[C@H](O)[C@@H](O)CN1CCCCCOCCc1ccsc1 | GBA2 | – | – | – | baseline: GCS IC50 over GBA2 IC50 | selectivity ratio | 120 |
| C[C@@H](CC(=O)NCc1cccc2ccccc12)NC(=O)[C@H](CC(=O)NC(C)(C)C)NC(=O)OC(C)(C)C | Proteasome component C5/PSMB8 (Homo sapiens, UniProt P20618+P28062) | enzyme activity | – | – | baseline: IC50 PSMB5 over IC50 PSMB8 | selectivity ratio | > 600 |
| OC[C@H]1[C@@H](O)[C@H](O)[C@@H](O)CN1CCCCCOCc1ccc(Br)cc1 | GBA2 | – | – | – | baseline: GBA1 IC50 over GBA2 IC50 | selectivity ratio | 402000 |
| COc1ccc2c3c(cccc13)C(=O)N(C)C2=O | Rhomboid protease AarA (Providencia stuartii, UniProt P46116) | – | – | – | baseline: IC50 chymotrypsin over IC50 AarA | selectivity ratio | 0.6 |

A few entries again:
| Compound | tested on | assay | test system | setting | how to read | measurement | result |
| --- | --- | --- | --- | --- | --- | --- | --- |
| C=C1C[C@]2(C(=O)OC)C=C(C(=O)OC(C)(C)C)C(=O)[C@H]1C2 (relative stereo) | MAPK8 | – | – | – | baseline: Ki ERK2 over Ki target | selectivity ratio | > 5 fold |
| COC(=O)c1c(O)cc(O)c(Cl)c1CCc1ccccc1Cc1ccccc1Cl | Endoplasmin (HSP90B1, Canis lupus familiaris, UniProt P41148) | fluorescence polarization | – | together with: FITC-geldanamycin tracer | baseline: Grp94 over Hsp90α | selectivity ratio | > 18 fold |
